Experimental data collected from several papers.
Each line is one published result; not all experiments were run side by side. ± gives the spread as reported.
MAP2K1: Dual specificity mitogen-activated protein kinase kinase 1 (MAP2K1, Homo sapiens, UniProt Q02750)

| Compound | target | assay | system | setting | scale | endpoint | value |
| --- | --- | --- | --- | --- | --- | --- | --- |
| CNS(=O)(=O)Nc1nccc(Cc2c(C)c3ccc(Oc4ncccn4)cc3oc2=O)c1F | MAP2K1 (Homo sapiens, UniProt Q02750, S218E/S222E) | ERK2 activation, inhibitor, IMAP FP | – | concentration not given | – | inhibition | inhibited |
| CC#CC(=O)N1CCC[C@H]1c1nc(-c2ccc(C(=O)Nc3ccccn3)cc2)c2c(N)nccn12 | MAP2K1 | kinase activity, inhibitor, HotSpot radiometric | – | 100 nM, added: ATP 10 µM | – | remaining activity | 97.7 ± 2.4% |
| COc1cc(-c2cncc3c2CN(C)Cc2cc(N4CCNCC4)ccc2-3)cc(OC)c1OC | MAP2K1 | kinase activity | – | 1 µM, human enzyme, added: ATP 10 µM | baseline: DMSO control | remaining activity | 88% |
| c1cnc2ccc(Nc3nc(NC4CC4)c4nc[nH]c4n3)cc2c1 | MAP2K1 | kinase activity, inhibitor, SelectScreen kinase profiling | – | 1 µM | baseline: control | remaining activity | 74% |
| CC/C(=N\NC(=O)NCc1cccc(O)c1)c1ccc(O)c(C)c1O | MAP2K1 | kinase activity | – | 0.1 µM | – | inhibition | 2.9% |
| COc1cc(F)ccc1-c1ncnc(Nc2cccc(C[S@](C)(=N)=O)c2)n1 | MAP2K1 | kinase activity | – | 10 µM, added: 10 µM ATP | – | remaining activity | 118% |
| [2H]c1cc(C)c(NC(=O)c2cnc(Nc3cc(N4CCCCC4)nc(C)n3)s2)c(Cl)c1 | MAP2K1 | – | – | 0.01 µM | – | inhibition | < 30% |
| COc1ccc(F)cc1C(=O)NCc1ccc(-c2nn([C@@H](C)C(F)(F)F)c(N)c2C(N)=O)cc1 | MAP2K1 | kinase activity, inhibitor, HotSpot radiometric | – | 100 nM, added: ATP 10 µM | – | remaining activity | 69.6 ± 0.2% |
| C=CC(=O)N1CCC(COCC(=O)N2CCN(c3nc(-c4cnc(N)nc4C(F)F)nc(N4CCOC[C@@H]4C)n3)CC2)CC1 | MAP2K1 | KINOMEscan | – | 1 µM | – | remaining binding | 99% |
| CC[C@@H]1[C@H](F)C(=O)N[C@@H]1COc1nccc2cc(C(N)=O)c(OC)cc12 | MAP2K1 | ATP-site probe binding, ActivX profiling | THP-1 cell lysate | 0.04 mM, Lys2 site | – | inhibition | 5.6% |
| O=C1NC(=O)/C(=C/c2ccc(-c3ccc(F)cc3O)o2)S1 | MAP2K1 | enzyme activity | – | 10 µM | – | remaining activity | 70% |
| Cc1cc(Nc2cc(N3CCN(C)CC3)nc(Sc3ccc(NC(=O)C4CC4)cc3)n2)[nH]n1 | MAP2K1 | kinase activity, KinaseProfiler | – | 0.03 µM, species human | baseline: control | remaining activity | 103% |
| C=CC(=O)N1CCC[C@@H](n2nc(-c3ccc(Oc4ccccc4)cc3)c3c(N)ncnc32)C1 | MAP2K1 | kinase activity, inhibitor, HotSpot radiometric | – | 100 nM, added: ATP 10 µM | – | remaining activity | 88.9 ± 0.8% |
| CNc1ncc2c(/C=C/C(=O)N3CCC(OC)CC3)nn(Cc3cccc(C(F)(F)F)c3)c2n1 | MAP2K1 | kinase activity, inhibitor | – | 1 µM | baseline: untreated control | remaining activity | 95% |
